Results from different studies.
Numbered parts are unrelated; each lists some results of a single study.

Block 1
Target: Hepatocyte nuclear factor 3-alpha (Foxa1, Mus musculus, UniProt P35582, residues 1-468, full length assumed)
Technique: EMSA with sequencing
Molecule type: double-stranded DNA, one strand shown
Sample: in vitro
Concentration: 10 and 20 nM
Notes: whole designed probe, mean of two concentrations, ends assumed
Reference: negative control set to 0
Direction: higher = stronger binding
Shared flanks, not repeated: GTGAGCGGTGCCCATTGATGGGGAAC … TTTCACTGGGATCGTGGGGAC
Target sequence (chain): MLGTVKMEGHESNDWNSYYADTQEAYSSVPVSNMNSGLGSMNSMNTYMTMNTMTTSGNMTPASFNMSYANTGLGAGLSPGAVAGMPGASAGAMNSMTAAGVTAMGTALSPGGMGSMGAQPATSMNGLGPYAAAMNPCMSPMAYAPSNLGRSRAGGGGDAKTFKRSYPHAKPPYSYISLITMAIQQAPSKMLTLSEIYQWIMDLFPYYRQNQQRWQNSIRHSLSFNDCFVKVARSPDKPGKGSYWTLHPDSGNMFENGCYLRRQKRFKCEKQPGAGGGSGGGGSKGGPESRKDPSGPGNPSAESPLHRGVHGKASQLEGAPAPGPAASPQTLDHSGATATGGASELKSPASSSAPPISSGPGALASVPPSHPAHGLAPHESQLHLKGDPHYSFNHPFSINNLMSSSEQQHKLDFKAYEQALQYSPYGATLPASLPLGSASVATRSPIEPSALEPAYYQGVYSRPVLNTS
| Sequence | normalised bound fraction [ratio] |
| --- | --- |
| TTTATCTCTAAAGTGGACATGATTGATGGCACAGGAATGCATTCAGCTGCAAGTAACAGAAAACATGACCAACAATGTGGGAGAGACATAGATGTTTACTTTGCTCATGTAAGAAGATGACAGAGCTTCTTCTCCAAGAAAACACCAAATGGCAGATGACACAGTGCAGTGGGAGGCCCAGAGGCCCTGGGAT | 0.374 |
| AGATTCCAGCCAGCAGAATAGGAATTTCAGAATACGATAAGGAGATGTTAAGGAAGGTCAGGCAGTAAAAAGAGGTTTGCTGACTCATGTGGTTTGTTGACTTAGCAAGTCAGGGAGAAGTCAATTGTTTGCTCTCCTGTTTTACAGTCTTTAGGTGTGGGCCAGCCCAGGGCCATTGATAGTCATTTTAGCC | 0.464 |
| TGAACAGATTAGCTGATCTCTAATGGCCCTAGGAGAAGATCTTGTATTGCTTCAAAATCTTTTCTGATTCTCATCACTCAACCTTCTTGGCTATGTAAACAAAGGAAGCTTTCCTTTTGTTTTCCAGACGTTTGGAAAACAAAATTTTCCAGAGCTGTGCATCTGCCAGGAAATGTTTCTTTTAACCTGATAT | 0.492 |
| GAAGGAAATAATGGAGCCAACCATGCATATAACCTCAGGGAGAACATTCTAGGTAGAGGGAACAGCAAGTGCAAAGGCCCTGAAGTGGGGGTTAGATTACCTTGTTGCACAATCTGCACACAGGCCAGTACAATTGGAATGGATGGGAAATGTAAAAGAGAGAAGTTGAAAAGGCCAGGTGCAGTGGCTCATG | -0.0531 |
| AGAGGAATCCCAGAGAGCTGTTCTTTACAGTTTTGTTTCTTGTTTAAATTCGAGAACTAAAAATCCAGTCCCAGAGTGCGTACATAGTCAAAGCAAACATGGAAAGTTCAGAAGTTATGCAGTGAACCATCAGAGCCTATTAAGAATCTAATCTTTCTCCAAGTAATGTTGGGGTCAGGCAGCTAACTGCAAC | 0.194 |
| ATCTTCCCCCTCTTCCTTGCCCCACCAGCTCACCTACGGGGGTTATTTGCAGATAGGAAAATAAATAAAGCCGGCATTCGTTAACCCTCTTCACGCGCATACTGCTGTTTGCTCTGGATGAATCATGGTCCTTTGGCGACGCCAGGCTCCGGGAGAGCAAAGCACCGTGTCAGGGCCATGATCCGGGCTCGCC | 0.335 |

Block 2
Target: Sal-like protein 4, full length isoform A (SALL4, Homo sapiens, UniProt Q9UJQ4, residues 1-1053)
UniProt Q9UJQ4, sequence (whole entry, looked up): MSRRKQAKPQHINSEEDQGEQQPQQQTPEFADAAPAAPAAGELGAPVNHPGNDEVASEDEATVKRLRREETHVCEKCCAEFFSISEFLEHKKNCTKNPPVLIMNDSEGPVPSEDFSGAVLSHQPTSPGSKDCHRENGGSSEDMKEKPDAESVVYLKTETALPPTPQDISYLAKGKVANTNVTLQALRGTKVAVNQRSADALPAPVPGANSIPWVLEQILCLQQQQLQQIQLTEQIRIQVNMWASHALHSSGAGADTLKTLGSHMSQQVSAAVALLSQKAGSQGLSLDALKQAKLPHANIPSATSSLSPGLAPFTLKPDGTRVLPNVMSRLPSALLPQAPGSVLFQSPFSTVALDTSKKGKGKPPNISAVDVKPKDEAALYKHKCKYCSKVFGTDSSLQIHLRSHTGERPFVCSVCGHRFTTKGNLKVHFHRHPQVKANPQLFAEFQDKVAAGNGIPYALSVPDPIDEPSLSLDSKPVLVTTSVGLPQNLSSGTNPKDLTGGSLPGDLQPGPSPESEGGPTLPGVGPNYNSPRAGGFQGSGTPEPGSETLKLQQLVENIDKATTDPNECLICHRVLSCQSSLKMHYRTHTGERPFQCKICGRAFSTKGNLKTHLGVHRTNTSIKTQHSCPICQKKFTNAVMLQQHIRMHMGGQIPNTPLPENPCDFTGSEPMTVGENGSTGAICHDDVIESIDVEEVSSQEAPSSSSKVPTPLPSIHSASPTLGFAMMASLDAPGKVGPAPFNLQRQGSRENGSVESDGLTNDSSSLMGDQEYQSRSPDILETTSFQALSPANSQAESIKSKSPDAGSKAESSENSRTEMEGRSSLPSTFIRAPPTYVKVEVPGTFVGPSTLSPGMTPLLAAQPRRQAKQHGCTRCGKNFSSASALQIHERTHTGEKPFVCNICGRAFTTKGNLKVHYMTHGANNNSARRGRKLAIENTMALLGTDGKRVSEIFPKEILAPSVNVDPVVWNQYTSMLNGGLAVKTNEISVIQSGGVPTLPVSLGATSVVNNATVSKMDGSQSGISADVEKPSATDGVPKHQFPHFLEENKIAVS
Technique: universal PBM
Molecule type: double-stranded DNA, one strand shown
Sample: in vitro
Concentration: 600 nM
Notes: 8-mer, flanks averaged, mean of replicates
Direction: higher = stronger binding
| Sequence | E-score |
| --- | --- |
| CGGGGAGC | -0.344 |
| AGCGCGTC | -0.297 |
| GACGTCTA | -0.0948 |
| GTTCACGA | -0.0943 |
| CGGAGCTC | -0.257 |
| TCCGATAA | 0.112 |
| ACTCATTA | 0.297 |
| CGTATAAG | 0.153 |
| ACCATACA | 0.0927 |
| AGCATGGC | -0.172 |
| CTGCGACC | -0.181 |
| CGTTCGGC | -0.228 |
| CCAGTAAA | 0.171 |
| CTGTGCGC | -0.316 |
| AATCCGCA | -0.0785 |
| CCTGATCA | -0.00603 |
| GACAGTGC | -0.12 |
| ACCTGTAA | 0.129 |
| ACTTCGCT | -0.0852 |
| TAGATTCA | 0.116 |
| AAGGCCTA | -0.149 |
| GAATAATC | 0.235 |
| AATGAGAC | -0.0682 |
| CATTTGGG | -0.0242 |
| TAGACGCA | 0.104 |

Block 3
Target: RING finger protein unkempt homolog, zinc fingers 1-6, GST-SBP tag (UNK, Homo sapiens, UniProt Q9C0B0, residues 30-357)
UniProt Q9C0B0, sequence (30-357, looked up): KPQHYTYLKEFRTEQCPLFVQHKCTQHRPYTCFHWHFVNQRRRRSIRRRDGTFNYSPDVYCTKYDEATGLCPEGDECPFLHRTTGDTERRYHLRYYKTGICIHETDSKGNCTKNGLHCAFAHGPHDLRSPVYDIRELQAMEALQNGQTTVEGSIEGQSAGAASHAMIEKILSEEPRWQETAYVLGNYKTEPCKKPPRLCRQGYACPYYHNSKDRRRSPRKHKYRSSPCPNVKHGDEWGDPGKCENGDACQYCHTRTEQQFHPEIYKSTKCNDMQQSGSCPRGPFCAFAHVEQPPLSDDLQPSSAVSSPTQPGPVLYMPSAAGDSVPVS
Technique: RNA Bind-n-Seq
Molecule type: RNA
Sample: in vitro
Concentration: not given
Notes: RNA with constant flanks, human-mouse chimeric sites, ends assumed
Reference: input RNA pool
Direction: higher = stronger binding
Shared flanks, not repeated: GGGAGUUCUACAGUCCGACGAUC … CAACAGAGGAUUGAGCAUCA
| Sequence | bound/input enrichment [ratio] |
| --- | --- |
| CCCCAAUACCAUUUGCAGGUCUGGAACUGCACUCUCUUUUUUAAAAAAUAUGCAUAUAUUUUAGGGCUGUAGAUUUAUUUUCCUGGUUUUGUUUUUCUUGCUUAUUCUUUGAGCACAGAA | 1.43 |
| GUAUUUGUCCCAUUUUUACUCGUGUUUUUAAGUGUAUUUUUAUAAGAUACAUGUAUUUACAAUUGAGCUUUUGUUACAUAAUGCUGAAAUGCUACUGGAGAUUAUGAAAAAUGUUUCAAU | 0.143 |
| AGAAAGCAAAACUUGGAACGAUUUAAGAAAGGAGAUGUAAGAUUCUUGAUUUGCACAGAUGUAGCUGCUAGAGGAAUUGAUAUCCAUGGCGUUCCUUAUGUGAUCAACGUCACCCUGCCU | 0.214 |
| GGACAUCUGUCAAAUUGUUAUGUUCCUGUGAAACAAGUGAACACUCUGAUACACUUCAUCUGCUUGUACAUCUGUAUUUGUAUAAUAUGUAAAUAUGUUAAUCCAAGCAAUGUGUCACUU | 0.171 |
| AGAAUCUUGGGACUGUUUUACUUAAUUGGUCAUUGAUAGCUUAACAAACAUGGAGAUAAGAUUAGAAGUUUUGACAUCAACAAGUAUUAAGCAGAAAAAACCAUGGCCACGUGUCUCCUG | 0.351 |
| AAAGAGAAACUAAAGCAAACUGAUUGAGAAGAGGAUUGCAAAGAGAAUUUCAUAGAGAAACUAGGAUUUAUUAGCAAACAUGAGUUAUAUUCCAGAGCGUCUCAGAAACCCCAGCCAAAC | 7.51 |
| GAACCUGCUCUCUCUGAUGAAGAUGAGGAAGACAAUGAUGAUGUUGAACCCAUUUCUGAAUUUCGAUUUGUGCCCAGUGAUAAGUCAGCAUUGGAGGCGAUGUUCACUGCAAUGUGCGAG | 0.237 |
| GGACCAUAAUCAUGGAGGACAUAAUGCAGCUCCCCAAAGCGCGCGUCAACGCCAGCAUGUUACCACAAUUCAUCGACCGGCCCGUGUGCUUCGUGGGGAAGCUGGAAAAGAUUCAUCCCA | 0.108 |
| UUUGUAUUUAUGCUAAGCACACGUGCUGGUGGUCUGGGCAUCAAUCUUGCGACUGCUGAUGUAGUCAUUUUAUAUGACUCAGAUUGGAAUCCGCAAGUUGAUCUUCAGGCUAUGGACCGU | 0.109 |
| AGAGCCCAGGAUGUUGAUGCUACAAAUCCAAAUUACGAAAUUAUGUGUAUGAUCAGAGACUUCAGAGGAAGUUUGGAUUACAGACCCCUAACAACAGCAGAUCCUAUUGAUGAACAUAGG | 0.457 |
| AUCCCAAUUAUGGACACCGGUGAAAACCCAGAGGUUCCCUUCCCUCGGGACAUGAUUGACUUAGAGGCCAAUUUUGAGAAGAUUGAAAAUGAACUGAAGGAAAUCAACACAAACCAGGAA | 0.183 |

Block 4
Target: RNA binding protein fox-1 homolog 2, RRM domain, GST-SBP tag (RBFOX2, Homo sapiens, UniProt O43251-10, residues 100-194)
Technique: RNA Bind-n-Seq
Molecule type: RNA
Sample: in vitro
Concentration: 365 nM
Notes: natural RNA segment, single round, ends assumed
Reference: no-protein control
Direction: higher = stronger binding
Shared flanks, not repeated: GGGAGUUCUACAGUCCGACGAUC … UGGAAUUCUCGGGUGCCAA
Construct (chain): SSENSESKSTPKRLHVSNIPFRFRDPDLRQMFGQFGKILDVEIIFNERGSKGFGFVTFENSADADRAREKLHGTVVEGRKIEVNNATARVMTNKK
| Sequence | RBNS enrichment (R) |
| --- | --- |
| UUGUUCUGUGUGCAUGGAUUCCACACCUCUGCCGUAGGUAGAUCCGUCAGCGGGCAUUAUUACCGUGUCUUGUAAAGGGUCGGUUUUGUUAUGCAACAUGCAGAAUGCUG | 1.16 |
| UCUUGCUAUACAGAAAAACCACAUUUCUUUUAUAUACUGUACGUGGGCAUAUCUUGUUGUUCAGUUUGGGUGUCUGCUAAAGAGGAAGUGCACUGGCCCUCUUUGAAAGG | 1.77 |
| UUUAUUCUUGUUUUGCCUUUUGGGUCUUAUUUCCAGGUCAGGAGAUGGCUAAUCCACACUAGCAAGCCUAGGCAUCUUUAUUCACAUCUCCAUGCUUUCAAGUAGAGCUG | 0.417 |
| UGAGCUGUGUUAAACCUCAGAGUUUAAAAGCUACUGAUAAACUGAAGAAAGUGUCUAUAUUGGAACUAGGGUCAUUUGAAAGCUUCAGUCUCGGAACAUGACCUUUAGUC | 0.375 |
| GAGCUAGGCUAUGAAGGGAAGAUGUGGCCGUACGUGGGAAUAACCAGUGUCCCACGCUCAUUUUCCCUCCAUCCUGCGUUCCGCCUCCCUUGGUACUCAGCCUUUUGGGG | 0.272 |
| CAGUGGGAACCUUCAUGCCUUAUUUAUUUCUAAUGGGUAAAGGGGUUUUCUUACCAAGCAUCCCUGACCUCCUGGAGACACCACCUGCUUUCCGGGCGGCACUGUGAUGG | 0.291 |
| UUUUCUAUAUUGAGGUGGCCACCAUACUAAUAUUCUAAAUUUUCAAUAUUUGAACUUUUAACUCUUGACAUUGAAAAAAAAGGAUUUGGAGAAAUUACCAAGAUUUUAAC | 0.543 |
| UCUCCUUCACAGUGAGGAAAAAGAGAAGGGUAGAAACUUUAGGGAGCCGGAUUUGUGUAUCAAUUCCUCCGCUGACAGUCAGUUUCUAGAUGGAGACAGCCUGCUUAAAG | 0.431 |
| UGACAAGGGUAUUAUCAUGGAGUUCUGCCUAUUCCUACUGGUGUCCACCAGUCACACAUUUGGAAUGUAGAUUCCAAAGACAGAAAAGAUAAAGGGUUUCCCAAGGGUAG | 0.406 |
| ACCUGGGGGGUAUUUUUUGCCCUCCGUUGGGACACCAGUCUUCGGUGUGUGGAAAUGUGGAAGUCCUUUUGCCCAUGUGAAGACAUGCUUUCCUCAGGGGGGGGGGGUGU | 0.329 |
| UGUAUGCACAGAGCAGACAGACUAAUGGAUCUCUGUUUUCUGCCAGUCAUCAGUGUGCCCUUGAAGCUAAGAGGGGAUUCCAGCCCAGGAAACGUCCCUAGGUAGGCUUG | 0.769 |
| UCUUGAGUCUCCACAUCAGUCUCACACCAGGGAACUUGGGGGUCCCCCGUUAAACUACAGCUGACCCUGGGCCUCAGGGCGGGAUGGUCCCAAGGUGAGCUCCGUGGACA | 0.508 |

For quick reference, copied from above (block 2):
| Sequence | E-score |
| --- | --- |
| CTGCGACC | -0.181 |
| ACCATACA | 0.0927 |
| CCTGATCA | -0.00603 |
| ACCTGTAA | 0.129 |
| TAGACGCA | 0.104 |
| CCAGTAAA | 0.171 |
| TCCGATAA | 0.112 |
| CTGTGCGC | -0.316 |
| GACAGTGC | -0.12 |
